# Values quoted from earlier work, collected from citations in different studies.
# Lines come from different studies, so protocols differ. ± gives the spread as reported.
# UniProt Q9H4B4, sequence (whole entry, looked up): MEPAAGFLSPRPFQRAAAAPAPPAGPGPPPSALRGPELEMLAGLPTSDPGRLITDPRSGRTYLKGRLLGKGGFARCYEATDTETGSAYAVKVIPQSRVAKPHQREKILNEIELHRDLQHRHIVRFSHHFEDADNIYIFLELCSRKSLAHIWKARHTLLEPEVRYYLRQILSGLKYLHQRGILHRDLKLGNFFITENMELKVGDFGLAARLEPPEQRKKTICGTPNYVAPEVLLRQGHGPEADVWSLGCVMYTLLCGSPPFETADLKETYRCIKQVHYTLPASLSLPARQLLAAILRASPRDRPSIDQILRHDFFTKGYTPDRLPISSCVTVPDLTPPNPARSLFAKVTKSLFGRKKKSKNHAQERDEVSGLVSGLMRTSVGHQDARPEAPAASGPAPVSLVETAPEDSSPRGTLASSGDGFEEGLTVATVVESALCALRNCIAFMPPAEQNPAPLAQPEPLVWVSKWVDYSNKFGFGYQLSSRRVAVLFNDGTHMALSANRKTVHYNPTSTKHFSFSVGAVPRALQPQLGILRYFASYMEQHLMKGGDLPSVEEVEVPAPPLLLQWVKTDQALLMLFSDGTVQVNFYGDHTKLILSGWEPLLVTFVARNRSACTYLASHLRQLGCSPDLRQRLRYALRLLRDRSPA
SMILES,tested on,test,system,conditions,how to read,endpoint,value
CC1(C)S[C@@H]2[C@H](NC(=O)[C@H](N)c3ccccc3)C(=O)N2[C@H]1C(=O)O,Escherichia coli,,clinical isolate RKI-No_590/16,,,MIC,> 16 µg/mL
CCCCC(C)C(=O)O (centres unmarked),mouse D3 embryonic stem cells,"cell differentiation, inhibitor",,unbound medium concentration,,IC10,875 µM
O=C(Oc1cccc(F)c1OC(=O)c1cccc(O)c1)c1cccc(O)c1,H1299,"cytotoxicity, MTT",,,,IC50,20.4 µM
O=C(c1ccc(Cl)cc1)N(Cc1ccccc1)C1CCCCC1,HUVEC,cell viability,,,,lowest toxic concentration,> 1 nM
CN(C)c1ccc(C(=O)N(CC(=O)NCc2ccccc2)Cc2ccc(C(=O)Nc3ccccc3N)cc2)cc1,A2780,"cell viability, MTT",,72 h,,IC50,4.33 ± 0.32 µM
CNC(C)C1CCC(N)C(OC2C(N)CC(N)C(OC3OCC(C)(O)C(NC)C3O)C2O)O1 (centres unmarked),Escherichia coli,,clinical isolate RKI-No_513/16,,,MIC,2 µg/mL
C=CCC(CCC)C(=O)O (centres unmarked),mouse D3 embryonic stem cells,"cell differentiation, inhibitor",,unbound medium concentration,,IC10,212 µM
C[C@@H](Oc1ccc(S(C)(=O)=O)cc1C(=O)N1C[C@@H]2C[C@]2(c2cc(C(F)(F)F)on2)C1)C(F)(F)F,primary human hepatocytes,"CYP3A4 induction, inducer",,,,EC50,1.96 µM
CCCCCC(CCC)C(=O)O (centres unmarked),mouse D3 embryonic stem cells,cell viability,,unbound medium concentration,,IC10,123 µM
O=S(=O)(Nc1ccc(-c2nc3cc(NS(=O)(=O)c4cccc5ccccc45)ccc3o2)cc1)c1cccc2ccccc12,HEK293,,,,,CC50,> 100 µM
O=c1cc(-c2ccccc2)oc2cc(O)c(O)c(O)c12,Vero,,,,,CC50,291 µg/mL
COc1cc2c(=O)n(CCO)c3c4cc5c(cc4ncc3c2cc1OC)OCO5,CPT-K5,cytotoxicity,,,,IC50,> 10 µM
CCC(CC)C(=O)O,mouse D3 embryonic stem cells,cell viability,,unbound medium concentration,,IC10,2000 µM
Cc1cc(C#N)cc(C)c1Oc1nc(Nc2ccc(C#N)cc2)nc(N)c1Br,MT-4,,,,,CC50,~5 µM
CC(=O)O[C@H]1C(=O)[C@@]2(C)[C@H]([C@H](OC(=O)c3ccccc3)[C@]3(O)C[C@H](OC(=O)[C@H](O)[C@@H](NC(=O)c4ccccc4)c4ccccc4)C(C)=C1C3(C)C)[C@]1(OC(C)=O)CO[C@@H]1C[C@@H]2O,LCC6-WT,cytotoxicity,,,,IC50,0.00181 µM
O=C(O)CNC(=O)C(CS)Cc1ccccc1 (centres unmarked),Vero,MTT,,,,CC50,> 100 µM
C=CCCC(=O)O,human neural embryonic cells,cell viability,,unbound medium concentration,,EC10,1710 µM
Nc1cc(C(F)(F)F)c(-c2nc(N3CCOCC3)nc(N3CCOCC3)n2)cn1,"PLK3 (Homo sapiens, UniProt Q9H4B4)",enzyme activity,,10 µM,relative to: untreated,remaining activity,96%
COC(=O)N[C@@H](C)CNc1nccc(-c2cn(C(C)C)nc2-c2cc(Cl)cc(NS(C)(=O)=O)c2F)n1,human primary hepatocytes,inducer,,concentration not given,,CYP3A4 induction,increased
O=C1Oc2ccc3ccccc3c2C1c1c[nH]c2ccccc12 (centres unmarked),COLO 320 ABCB1-overexpressing resistant,,,concentration not given,,cytotoxicity,no effect
COc1cc2oc(-c3ccc(O)c(O)c3)cc(=O)c2c(O)c1O,Huh7.5,cell viability,,,,CC50,114 µM
COc1c(Br)cccc1C(=O)Nc1ccc(Sc2nc3ccccc3s2)cc1,THLE3,,,,,CC50,> 100 µM
CCCC(CCC)C(=O)O,mouse D3 embryonic stem cells,cell viability,,unbound medium concentration,,IC10,285 µM

# A few entries again:
SMILES,tested on,test,system,conditions,how to read,endpoint,value
COC(=O)N[C@@H](C)CNc1nccc(-c2cn(C(C)C)nc2-c2cc(Cl)cc(NS(C)(=O)=O)c2F)n1,human primary hepatocytes,inducer,,concentration not given,,CYP3A4 induction,increased
Cc1cc(C#N)cc(C)c1Oc1nc(Nc2ccc(C#N)cc2)nc(N)c1Br,MT-4,,,,,CC50,~5 µM
CN(C)c1ccc(C(=O)N(CC(=O)NCc2ccccc2)Cc2ccc(C(=O)Nc3ccccc3N)cc2)cc1,A2780,"cell viability, MTT",,72 h,,IC50,4.33 ± 0.32 µM
O=c1cc(-c2ccccc2)oc2cc(O)c(O)c(O)c12,Vero,,,,,CC50,291 µg/mL
